Results collected from several papers.
Protocols differ between the studies behind these lines.
MAPK14: Mitogen-activated protein kinase 14 (MAPK14, Homo sapiens, UniProt Q16539)
UniProt Q16539, sequence (whole entry, unmodified, looked up): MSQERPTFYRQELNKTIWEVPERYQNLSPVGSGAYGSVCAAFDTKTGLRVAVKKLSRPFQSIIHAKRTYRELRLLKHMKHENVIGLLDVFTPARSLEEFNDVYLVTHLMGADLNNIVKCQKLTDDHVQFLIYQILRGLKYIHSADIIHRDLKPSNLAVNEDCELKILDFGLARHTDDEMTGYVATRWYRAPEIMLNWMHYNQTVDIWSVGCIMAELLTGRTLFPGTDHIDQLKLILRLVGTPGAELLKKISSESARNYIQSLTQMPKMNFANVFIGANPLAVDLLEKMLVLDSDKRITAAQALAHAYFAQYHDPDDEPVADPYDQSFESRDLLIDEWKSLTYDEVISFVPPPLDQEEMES
MAPK14 T106M: Mitogen-activated protein kinase 14 (MAPK14, Homo sapiens, UniProt Q16539, T106M)

Structure (SMILES) = O=C(CN1CN(c2ccccc2)C2(CCN(C(=O)c3cnc4[nH]ncc4c3)CC2)C1=O)NCC(F)(F)F; target = MAPK14; test = inhibitor; setting = concentration not given; measurement = inhibition; value = < 50%
Structure (SMILES) = N[C@H](C(=O)N1CCCC1)C1CCN(c2nccc3c(-c4ncc(Cl)cc4Cl)cccc23)CC1; target = MAPK14; test = enzyme activity, inhibitor; setting = 10 µM; measurement = inhibition; value = 31%
Structure (SMILES) = [CH3][Ti+2][O]C(=O)c1ccc([S][Au][PH](c2ccccc2)(c2ccccc2)c2ccccc2)cc1.c1cc[cH-]c1.c1cc[cH-]c1; target = MAPK14; test = kinase activity, HotSpot kinase; setting = 1 µM, together with: ATP 10 µM; measurement = remaining activity; value = 119%
Structure (SMILES) = CC(C)[C@H]1NC(=O)C[C@H]2/C=C/CCSSC[C@@H](NC1=O)C(=O)N[C@H](Cc1cccc3ccccc13)C(=O)NCC(=O)O2; target = MAPK14; test = enzyme activity, inhibitor; setting = 10 µM; measurement = inhibition; value = 5%
Structure (SMILES) = Nc1ccc(/C=C/C(=O)N2CCc3c(oc4c(-c5ccc(F)cc5)cc(-c5ccc(C(=O)N6CCC(F)(F)CC6)cn5)cc34)C2)cn1; target = MAPK14; test = binding, competition with immobilised ligand; setting = 1 µM; measurement = remaining binding; value = 95%
Structure (SMILES) = CN(C)[C@H]1C[C@@]23CC[C@@]4(O2)C(=CC[C@]2(C)[C@@H](c5ccc6ccncc6c5)CC[C@H]24)C=C3[C@@H](O)[C@@H]1O; target = MAPK14; test = probe labelling, inhibitor, KiNativ ATP probe MS; system = native lysate; setting = 0.1 µM; measurement = inhibition; value = 4.5%
Structure (SMILES) = O=C1NC(=O)c2c1c1cc(F)c[n+]3c1c1c2c2cc(O)ccc2[n]1[Ru-4]312([N]=C=S)[S+]3CC[S+]1CC[S+]2CC3 (stereo not shown); target = MAPK14 T106M; test = enzyme activity; setting = 100 nM, human enzyme, together with: 10 µM ATP; how to read = baseline: untreated; measurement = remaining activity; value = 101%
Structure (SMILES) = CCOC(=O)[C@@H]1Cc2c(cc([N+](=O)[O-])cc2[N+](=O)[O-])[C@H](O)[C@]12C(=O)Nc1ccc(Br)cc12; target = MAPK14; test = KINOMEscan; setting = 100 nM; how to read = baseline: DMSO control; measurement = remaining binding; value = 95%
Structure (SMILES) = C[C@H](NCc1ccc(-c2ccc(C(F)(F)F)cc2)cc1)C(N)=O; target = MAPK14; test = cell-free assay, competition with immobilised ligand; setting = 1 µM; measurement = inhibition; value = 3%
Structure (SMILES) = CS(C)(=O)=Nc1ccc(-c2ccc(-c3nc4cc(O[C@@H]5CO[C@H]6[C@@H]5OC[C@H]6O)[nH]c4cc3F)cc2)cc1; target = MAPK14 T106M; test = enzyme activity, inhibitor; setting = 10 µM; measurement = inhibition; value = -13%
